Measured values pooled from the literature.
Parts stem from different laboratories: compare values within a part only.

Block 1 — technique: protein-binding microarray; form: double-stranded DNA, one strand shown; sample: in vitro; concentration: 250 nM; notes: 60-bp whole probe; together with: salmon DNA 0.4 mg/ml; baseline: random background probes; direction: higher = stronger binding; constant ends, left off below: GCCTAGCAC … GTCTTGATTCGCTTGACGCTGCTG
Target: Interferon regulatory factor 7, full length, phosphomimetic (IRF7, Homo sapiens, UniProt Q92985, residues 1-503, S101K/S471D/S472D/S475D/S476D/S477D/S483D/S484D/S487D)
Sequence of UniProt Q92985 (whole entry, unmodified, looked up): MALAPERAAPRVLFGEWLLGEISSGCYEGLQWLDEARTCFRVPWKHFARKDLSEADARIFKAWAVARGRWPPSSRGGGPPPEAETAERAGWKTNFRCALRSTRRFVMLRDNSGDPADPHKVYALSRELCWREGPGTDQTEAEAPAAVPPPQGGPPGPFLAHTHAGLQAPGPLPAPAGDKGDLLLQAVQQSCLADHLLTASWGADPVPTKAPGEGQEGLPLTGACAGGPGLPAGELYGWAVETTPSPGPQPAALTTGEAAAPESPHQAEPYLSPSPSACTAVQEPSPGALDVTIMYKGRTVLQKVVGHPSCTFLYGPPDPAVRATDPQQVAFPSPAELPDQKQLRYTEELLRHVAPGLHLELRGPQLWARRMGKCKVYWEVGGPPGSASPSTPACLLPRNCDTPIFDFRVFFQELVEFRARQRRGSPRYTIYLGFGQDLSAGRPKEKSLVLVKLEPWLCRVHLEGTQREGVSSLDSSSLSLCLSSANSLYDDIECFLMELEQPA
`CTCCCTTTCAGTTTTCCTCTGTGCTAG` has a log fluorescence of 1.02 z-score.
For `TCACTTTTCGCTTTCTTACTGTGCTAG`, the log fluorescence was 4.97 z-score.
`GACGATATCGGGACGGGAGACGTGCTA` gave a log fluorescence of -0.307 z-score.
With `GTAGATTTCAGTTCCGATTAGTGCTAG` the log fluorescence was 1.26 z-score.
With `TCATGCTTGCGTCTGGGACTGTGCTAG` the log fluorescence was -0.802 z-score.
`TTAGGTTTCCTTTCCCTGTAGTGCTAG` gave a log fluorescence of 5.19 z-score.
For `TTAGGTATCCGTTTCGGTTAGTGCTAG`, the log fluorescence was 4.26 z-score.
`TTAGGACTGGACACTGGGTGAGTGCTA` has a log fluorescence of -0.764 z-score.
`GACGATCTCAGTATCGCGACGTGCTAG` gave a log fluorescence of -0.0696 z-score.
For `TCATGTGTTACTTTCTAACTGTGCTAG`, the log fluorescence was 0.246 z-score.
`GACGGTATCAGGACTGGGGACGTGCTA` gave a log fluorescence of -0.487 z-score.

Block 2 — technique: protein-binding microarray; form: double-stranded DNA, one strand shown; sample: in vitro; concentration: not given; direction: higher = stronger binding
Target: Protein max, full length (MAX, Homo sapiens, UniProt P61244-2, residues 1-151)
Notes: k-mer, scored over probes, only values ≥0.25
The E-score of `GCATATGC` is reported as 0.364.
The E-score of `ATGCGCAT` is reported as 0.405.
`GCGTTTCC` has an E-score of 0.255.
`CGTGCGAG` gave an E-score of 0.377.
With `ACGTGCTA` the E-score was 0.451.
The E-score of `TCACGTGA` is reported as 0.489.
For `TGCGGACA`, the E-score was 0.254.

Block 3 — technique: protein binding microarray; form: double-stranded DNA, one strand shown; sample: in vitro; concentration: not given; baseline: not given; direction: higher = stronger binding
Target: Histone acetyltransferase KAT6A, both winged helices, GST fusion (KAT6A, Homo sapiens, UniProt Q92794, residues 1-181)
Notes: 8-mer, flanks averaged, mean of 2 arrays, mostly near background
Residues (chain): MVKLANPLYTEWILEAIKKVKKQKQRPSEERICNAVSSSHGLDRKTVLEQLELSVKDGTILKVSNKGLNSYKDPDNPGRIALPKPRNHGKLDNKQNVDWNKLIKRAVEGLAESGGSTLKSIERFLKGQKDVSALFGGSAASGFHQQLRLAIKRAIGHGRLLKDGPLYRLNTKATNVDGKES
For `TAATTGTA`, the E-score was -0.084.
`AGATCCTA` has an E-score of -0.199.
`CGGCAGCA` gave an E-score of 0.173.
`GGCCCACA` has an E-score of -0.149.
`AACATACC` has an E-score of 0.0222.
`CAAAGTCG` has an E-score of -0.0973.
`CCAAAGGA` has an E-score of -0.129.
The E-score of `CCTGCGCG` is reported as 0.296.
For `CCCACTGC`, the E-score was -0.133.

Further values, each from its own experiment
`PhoQ, residues 284 288 289 292 302 303 TAVSDG` has a fold induction of 16.4 (PhoP, residues 12 14 15 18 19 GHCSL (Escherichia coli, UniProt P23836); Sort-seq, measured: YFP reporter; E. coli; PhoQ-PhoP variant library, together with: 10 µM Mg2+; baseline: high Mg2+ state, higher = stronger signaling).

Some of these lines once more (block 3):
`CAAAGTCG` has an E-score of -0.0973.
`CCAAAGGA` has an E-score of -0.129.
`AACATACC` has an E-score of 0.0222.
`GGCCCACA` has an E-score of -0.149.
